Experimental data from different studies.
Numbered parts are unrelated; each lists some results of a single study. Changes are numbered by the printed parent chain.

Sample 1
Target: NFE2L2, bZIP domain (human)
Method: DHFR protein complementation
Sample: yeast
Setting: single substitutions, most at no-binding floor
Relative to: wild-type JUN-FOS pair
Direction: higher = stronger binding
Endpoint: binding fitness
Parent: JUN, bZIP domain (human); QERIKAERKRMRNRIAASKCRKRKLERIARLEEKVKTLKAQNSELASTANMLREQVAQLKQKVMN; partner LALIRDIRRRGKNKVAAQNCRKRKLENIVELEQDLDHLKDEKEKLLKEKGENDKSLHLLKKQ
Change = A46S; result = -1.31 natural log
Change = E54T; result = -1.24 natural log
Change = A49D; result = -1.54 natural log
Change = R30S; result = -1.34 natural log
Change = A40L; result = -1.42 natural log
Change = K39S; result = -1.49 natural log
Change = K34W; result = -1.12 natural log
Change = K34A; result = -1.47 natural log

Sample 2
Target: RING finger protein unkempt homolog, zinc fingers 1-6, GST-SBP tag (UNK, Homo sapiens, UniProt Q9C0B0, residues 30-357)
UniProt Q9C0B0, sequence (30-357, looked up): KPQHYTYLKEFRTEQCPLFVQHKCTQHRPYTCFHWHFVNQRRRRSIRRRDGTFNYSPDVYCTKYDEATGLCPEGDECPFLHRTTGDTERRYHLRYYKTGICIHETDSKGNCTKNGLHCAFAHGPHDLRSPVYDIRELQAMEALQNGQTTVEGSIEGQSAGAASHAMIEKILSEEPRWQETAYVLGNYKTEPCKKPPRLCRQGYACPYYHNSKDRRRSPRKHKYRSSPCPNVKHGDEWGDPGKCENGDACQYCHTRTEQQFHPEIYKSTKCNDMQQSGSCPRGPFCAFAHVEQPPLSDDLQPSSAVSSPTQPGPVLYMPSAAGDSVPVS
Method: RNA Bind-n-Seq
Form: RNA
Sample: in vitro
Tested at: not given
Setting: RNA with constant flanks, human and mouse sites, ends assumed
Relative to: input RNA pool
Direction: higher = stronger binding
Endpoint: bound/input enrichment
Constant ends, left off below: GGGAGUUCUACAGUCCGACGAUC … CAACAGAGGAUUGAGCAUCA
Oligonucleotide = UUGUGGUGCGCUGUCUUCCCGCUUGCGUCAGGGACCUGCCCGACUCAGUGGCCGCCAUGGCAUCAGAUGAAGGCAAACUUUUUGUUGGAGGGCUGAGUUUUGACACCAAUGAGCAGUCGC; result = 0.12 ratio
Oligonucleotide = UCUCUUGCUACUUGCCAGUUAUCUGAGCCAUUGUUGUGGUUUAUCUUGAGAGUGUUGGAUACUAGUGAUGCAUUGAAAGCUUUCCAUGAUAUGGGUGGAGUUCAGCUCAUAUGCAAUAAU; result = 0.305 ratio
Oligonucleotide = UCUUCAGAUAUGAAGAUGACUCAGCUGUUCACCAAAGUUGAAUCAGAGGAUACAAGCUGCCUUUUUGAUAAGCUUAAGAAGGAGCCUGAUGCUCUCACUCUGCUGGCUCCAGCUGCCGGC; result = 1.16 ratio
Oligonucleotide = CUGACACUCUUAUCCCAGCCUGUACACUGUUUGACCAUUUUGUCUGCAGUCAUUGUGUAUAACUUGAGAGAAACAUACUUUAAAUUACCUGGGAGGGUCUGAAUUCUCUAUUUUUGUGAU; result = 0.448 ratio
Oligonucleotide = AUGAAAUUUUGGCCUAAAACAUGCAGUCAAAAAGAGGUCAUGUUCCUCGGGGAGCUGGAAGAAAUCUUGGAUGUGAUUGAACCGUCACAAUUUGUUAAAAUCCAAGAACCUUUGUUUAAA; result = 0.134 ratio
Oligonucleotide = UCUAGGACAACAUUUGAUUGAGGAUGAACUAUUAUUACUAGAAAGCAAUUUGGUGACAAAAAAAAUCCUCACACGGGCGUCUCACAAUGGUUGAUUUUCCAGGGUCCUGGGUAUAUGAGA; result = 13.1 ratio
Oligonucleotide = GGGGGUGAUGGUCCUAUGUGUCGCCCAGUAAUUCUGUUGCCGGAAGAUACCCCCCCCUUCUUAGAGCUUAAAGGAUCACGCCAUCCUUGCAUUACGAAGACUUUUUUUGGAGAUGAUUUU; result = 0.44 ratio
Oligonucleotide = GUGGAGAGAGAACUUGUUGAGAAAGAGUUAUUAGAAAAAGUUAAACAUCUUGAGAAUCAAAUAGCCAAAACUCCUGCCUUUGAGUCAGCCAGAGAAGAUUCUUCAAGCUUAGUUGCGGAA; result = 3.95 ratio

Sample 3
Target: FOXO3, forkhead domain (mouse, UniProt Q9WVH4, residues 31-263)
UniProt Q9WVH4, sequence (31-263, looked up): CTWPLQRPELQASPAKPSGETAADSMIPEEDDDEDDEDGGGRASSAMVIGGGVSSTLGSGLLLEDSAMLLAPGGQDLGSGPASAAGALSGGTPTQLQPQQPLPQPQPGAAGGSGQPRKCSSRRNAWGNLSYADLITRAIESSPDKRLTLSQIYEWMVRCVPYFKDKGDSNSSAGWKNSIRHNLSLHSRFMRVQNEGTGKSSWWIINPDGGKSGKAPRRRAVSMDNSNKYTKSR
Method: protein-binding microarray
Form: hairpin DNA
Sample: in vitro
Tested at: not given
Setting: whole hairpin DNA, median over replicate spots
Relative to: not given
Direction: higher = stronger binding
Endpoint: median fluorescence
Constant ends, left off below: GAGGCCAT … ATGGCCTCACACTC
Oligonucleotide = GTAACCAACGCCTCCTGGCGTTGGTTAC (5mC at 14); result = 3980 a.u.
Oligonucleotide = CTAACCAACGCCTCCTGGCGTTGGTTAG; result = 3850 a.u.
Oligonucleotide = GTGACCAACGCCTCCTGGCGTTGGTCAC; result = 4500 a.u.
Oligonucleotide = GTAACCAACGCCTCCTGGCGTTGGTTAC (5mC at 13); result = 4050 a.u.
Oligonucleotide = GTCGCCAACGCCTCCTGGCGTTGGCGAC (5mC at 33); result = 4760 a.u.
Oligonucleotide = GTAAACAAAGCCTCCTGGCTTTGTTTAC; result = 5290 a.u.
Oligonucleotide = CTAAACAACGCCTCCTGGCGTTGTTTAG (5mC at 9); result = 3870 a.u.
Oligonucleotide = GCAGACAACGCCTCCTGGCGTTGTCTGC; result = 4580 a.u.

Further values, each from its own experiment
Parent: viral docking peptide; KGVKRKLFAEDSS; partner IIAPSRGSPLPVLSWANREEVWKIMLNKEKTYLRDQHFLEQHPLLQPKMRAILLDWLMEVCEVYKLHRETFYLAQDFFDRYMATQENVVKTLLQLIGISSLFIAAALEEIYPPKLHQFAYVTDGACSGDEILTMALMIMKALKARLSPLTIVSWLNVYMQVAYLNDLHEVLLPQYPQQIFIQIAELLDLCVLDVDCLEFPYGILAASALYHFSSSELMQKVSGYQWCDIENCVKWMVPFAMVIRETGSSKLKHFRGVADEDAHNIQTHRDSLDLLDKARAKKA
Change = D11G; target = CCNE1, cyclin fold, Cln2 fusion (human); assay = yeast growth competition, sequencing; test system = yeast; conditions = strong parent motif; scale = relative to: not given, higher = stronger binding; endpoint = normalised enrichment score; result = 7.4

For quick reference, copied from above (sample 3):
Oligonucleotide = CTAACCAACGCCTCCTGGCGTTGGTTAG; result = 3850 a.u.
Oligonucleotide = GTAACCAACGCCTCCTGGCGTTGGTTAC (5mC at 14); result = 3980 a.u.
